Results gathered from unrelated publications.
Each line is one published result; not all experiments were run side by side.
Cell line: HEK293

N=C(N)NCCC[C@@H]1NC(=O)[C@H](CCCNC(=N)N)NC(=O)[C@@H](C(c2ccccc2)c2ccccc2)NC(=O)[C@H](Cc2c[nH]c3ccccc23)NC(=O)[C@@H](C(c2ccccc2)c2ccccc2)NC(=O)[C@@H](CCCNC(=N)N)NC(=O)[C@@H](CCCNC(=N)N)NC1=O
viability (cell growth or viability, MTS; 200 µg/mL, 24 h): 72 to 77%

Cc1ccc(-n2cc(CSc3nc4ccccc4n3Cc3cn(-c4ccc(C)cc4)nn3)nn2)cc1
viability (MTT; 31.3 ppm): 48.1%

O=C(CN1C(=O)CSC1=O)Oc1ccc(/C=N/NC(=O)c2ccncc2)cc1Cl
viability (cell growth or viability, MTT; 50 µg/mL, 24 h): > 70%

CC[C@H](C)[C@@H](C(=O)N[C@@H](Cc1ccc(O)cc1)C(=O)N1CCC[C@H]1C(=O)N[C@@H](Cc1ccccc1)C(=O)O)n1cc(C(Cc2ccc(O)cc2)NC(=O)[C@@H](NC(=O)[C@H](CCCNC(=N)N)NC(=O)[C@@H](N)CC(=O)O)C(C)C)nn1 (some centres unmarked)
viability (cell growth or viability, MTT; 25 µM, 24 h): 92.5%

CN1CCCNC(=O)c2cccc(c2)C(=O)NCCCN(C)CCCNc2cccc3c2C(=O)c2cccc(c2C3=O)NCCC1
viability (cell growth or viability, CCK-8; 15 µM, 48 h): 4.66%

c1cc2nc(c1)-c1cccc(n1)CCCc1ccc(cc1)OCCCCCCOc1ccc(cc1)CCC2
viability (cell growth or viability, MTT; 12.5 µM, 24 h): 91.8%

N=C(N)NCCC[C@@H]1NC(=O)[C@H](CCCNC(=N)N)NC(=O)[C@@H](CCCNC(=N)N)NC(=O)[C@@H](CCCNC(=N)N)NC(=O)[C@@H](Cc2ccc3ccccc3c2)NC(=O)[C@H](Cc2c[nH]c3ccccc23)NC(=O)[C@@H](Cc2ccc3ccccc3c2)NC1=O
viability (cell growth or viability, MTS; 200 µg/mL, 24 h): 67 to 72%

O=C(CN1C(=O)CSC1=O)Oc1ccc(/C=N/NC(=O)c2ccncc2)cc1
viability (cell growth or viability, MTT; 40 µg/mL, 24 h): > 70%

For quick reference, copied from above:
N=C(N)NCCC[C@@H]1NC(=O)[C@H](CCCNC(=N)N)NC(=O)[C@@H](CCCNC(=N)N)NC(=O)[C@@H](CCCNC(=N)N)NC(=O)[C@@H](Cc2ccc3ccccc3c2)NC(=O)[C@H](Cc2c[nH]c3ccccc23)NC(=O)[C@@H](Cc2ccc3ccccc3c2)NC1=O
viability (cell growth or viability, MTS; 200 µg/mL, 24 h): 67 to 72%
